# Results from different studies.
# Protocols differ between the studies behind these lines. Several values in a cell are separate wells, animals, samples, runs or records. ± marks the error that the study gave.
# CASP8: Caspase-8 (CASP8, Homo sapiens, UniProt Q14790)
# Chain of UniProt Q14790 (whole entry, looked up): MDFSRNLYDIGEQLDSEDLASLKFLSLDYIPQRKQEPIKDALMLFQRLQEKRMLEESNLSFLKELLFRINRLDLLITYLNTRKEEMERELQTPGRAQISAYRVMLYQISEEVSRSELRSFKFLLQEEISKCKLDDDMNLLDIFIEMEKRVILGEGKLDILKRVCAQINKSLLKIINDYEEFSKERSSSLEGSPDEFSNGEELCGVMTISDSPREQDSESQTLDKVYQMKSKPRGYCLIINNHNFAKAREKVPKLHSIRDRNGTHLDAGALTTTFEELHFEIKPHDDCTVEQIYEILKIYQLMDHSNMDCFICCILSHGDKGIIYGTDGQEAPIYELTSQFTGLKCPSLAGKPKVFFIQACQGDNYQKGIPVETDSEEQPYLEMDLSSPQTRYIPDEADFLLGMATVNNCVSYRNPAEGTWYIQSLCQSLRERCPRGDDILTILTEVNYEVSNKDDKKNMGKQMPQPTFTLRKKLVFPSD
# ECI2: Enoyl-CoA delta isomerase 2 (ECI2, Homo sapiens, UniProt O75521)
# Chain of UniProt Q13148 (whole entry, looked up): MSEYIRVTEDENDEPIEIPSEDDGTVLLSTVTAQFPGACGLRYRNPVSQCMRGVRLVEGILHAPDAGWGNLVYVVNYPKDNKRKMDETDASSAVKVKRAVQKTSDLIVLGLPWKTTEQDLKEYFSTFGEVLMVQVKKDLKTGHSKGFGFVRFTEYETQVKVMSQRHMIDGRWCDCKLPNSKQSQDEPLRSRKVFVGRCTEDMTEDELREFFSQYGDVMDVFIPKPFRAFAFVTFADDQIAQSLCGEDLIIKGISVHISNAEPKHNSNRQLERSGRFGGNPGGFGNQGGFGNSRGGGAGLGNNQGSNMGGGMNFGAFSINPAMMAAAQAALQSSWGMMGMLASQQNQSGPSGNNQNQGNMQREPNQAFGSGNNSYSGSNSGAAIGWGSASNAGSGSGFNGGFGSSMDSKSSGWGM
# Chain of UniProt O75521 (whole entry, looked up): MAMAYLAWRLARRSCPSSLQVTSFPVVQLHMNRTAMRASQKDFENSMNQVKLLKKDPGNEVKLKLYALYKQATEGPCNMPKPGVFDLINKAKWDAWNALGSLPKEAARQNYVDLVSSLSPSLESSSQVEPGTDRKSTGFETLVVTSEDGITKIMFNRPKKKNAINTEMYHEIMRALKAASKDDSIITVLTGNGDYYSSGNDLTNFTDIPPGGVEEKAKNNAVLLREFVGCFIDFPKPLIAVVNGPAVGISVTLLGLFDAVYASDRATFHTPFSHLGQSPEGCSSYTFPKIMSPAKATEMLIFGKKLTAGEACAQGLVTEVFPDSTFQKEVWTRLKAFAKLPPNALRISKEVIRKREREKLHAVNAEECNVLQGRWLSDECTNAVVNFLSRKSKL
# Chain of UniProt Q06124 (whole entry, looked up): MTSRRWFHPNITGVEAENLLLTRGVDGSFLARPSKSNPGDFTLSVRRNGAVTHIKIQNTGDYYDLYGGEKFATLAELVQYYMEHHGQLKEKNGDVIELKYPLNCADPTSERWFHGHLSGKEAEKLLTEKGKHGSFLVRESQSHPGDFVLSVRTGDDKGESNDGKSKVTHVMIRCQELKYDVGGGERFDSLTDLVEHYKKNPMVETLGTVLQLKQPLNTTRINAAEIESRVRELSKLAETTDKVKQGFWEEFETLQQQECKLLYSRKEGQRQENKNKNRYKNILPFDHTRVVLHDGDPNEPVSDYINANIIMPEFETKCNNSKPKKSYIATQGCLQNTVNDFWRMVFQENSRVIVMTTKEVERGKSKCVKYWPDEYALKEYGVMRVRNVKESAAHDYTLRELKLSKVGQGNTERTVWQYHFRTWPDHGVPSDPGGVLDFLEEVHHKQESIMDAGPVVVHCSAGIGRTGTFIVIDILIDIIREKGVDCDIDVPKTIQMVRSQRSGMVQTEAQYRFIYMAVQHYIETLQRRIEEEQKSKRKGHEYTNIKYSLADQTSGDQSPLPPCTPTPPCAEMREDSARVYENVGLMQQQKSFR
# Chain of UniProt Q9UQ07 (whole entry, looked up): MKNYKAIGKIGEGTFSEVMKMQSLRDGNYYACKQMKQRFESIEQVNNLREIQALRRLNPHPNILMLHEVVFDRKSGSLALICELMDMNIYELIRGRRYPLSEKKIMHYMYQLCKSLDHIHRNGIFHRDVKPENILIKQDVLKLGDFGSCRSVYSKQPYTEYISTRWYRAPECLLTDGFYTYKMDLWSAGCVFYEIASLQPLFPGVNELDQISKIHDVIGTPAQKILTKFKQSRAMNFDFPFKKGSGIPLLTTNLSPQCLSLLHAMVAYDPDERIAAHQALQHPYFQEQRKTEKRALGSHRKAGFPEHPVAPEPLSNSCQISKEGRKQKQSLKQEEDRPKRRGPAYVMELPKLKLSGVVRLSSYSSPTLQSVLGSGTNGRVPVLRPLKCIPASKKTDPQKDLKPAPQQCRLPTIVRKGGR
# Chain of UniProt P55060 (whole entry, looked up): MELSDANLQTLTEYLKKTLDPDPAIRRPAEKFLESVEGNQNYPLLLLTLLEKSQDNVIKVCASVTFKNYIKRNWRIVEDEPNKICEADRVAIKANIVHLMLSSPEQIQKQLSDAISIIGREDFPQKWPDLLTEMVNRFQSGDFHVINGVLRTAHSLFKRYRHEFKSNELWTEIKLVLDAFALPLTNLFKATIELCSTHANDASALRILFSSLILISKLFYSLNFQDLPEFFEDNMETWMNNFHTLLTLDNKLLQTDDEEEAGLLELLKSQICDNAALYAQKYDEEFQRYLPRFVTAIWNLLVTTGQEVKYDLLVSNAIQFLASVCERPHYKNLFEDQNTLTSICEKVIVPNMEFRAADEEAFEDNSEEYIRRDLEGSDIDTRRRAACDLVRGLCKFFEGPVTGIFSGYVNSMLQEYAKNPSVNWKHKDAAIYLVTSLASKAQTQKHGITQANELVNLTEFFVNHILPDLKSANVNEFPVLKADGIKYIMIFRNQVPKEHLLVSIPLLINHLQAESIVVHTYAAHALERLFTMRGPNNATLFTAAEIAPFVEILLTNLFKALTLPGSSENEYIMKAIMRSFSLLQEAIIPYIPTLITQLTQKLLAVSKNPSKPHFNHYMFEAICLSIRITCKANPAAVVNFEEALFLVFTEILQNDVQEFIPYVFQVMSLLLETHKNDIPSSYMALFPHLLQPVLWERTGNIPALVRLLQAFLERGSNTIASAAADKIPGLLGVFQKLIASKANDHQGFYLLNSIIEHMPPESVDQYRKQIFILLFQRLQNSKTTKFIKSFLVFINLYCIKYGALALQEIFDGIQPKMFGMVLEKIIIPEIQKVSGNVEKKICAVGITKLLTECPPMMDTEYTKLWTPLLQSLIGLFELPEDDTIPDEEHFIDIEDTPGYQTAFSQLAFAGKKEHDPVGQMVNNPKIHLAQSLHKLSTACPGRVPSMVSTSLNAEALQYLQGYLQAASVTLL
# Chain of UniProt Q9UI08 (whole entry, looked up): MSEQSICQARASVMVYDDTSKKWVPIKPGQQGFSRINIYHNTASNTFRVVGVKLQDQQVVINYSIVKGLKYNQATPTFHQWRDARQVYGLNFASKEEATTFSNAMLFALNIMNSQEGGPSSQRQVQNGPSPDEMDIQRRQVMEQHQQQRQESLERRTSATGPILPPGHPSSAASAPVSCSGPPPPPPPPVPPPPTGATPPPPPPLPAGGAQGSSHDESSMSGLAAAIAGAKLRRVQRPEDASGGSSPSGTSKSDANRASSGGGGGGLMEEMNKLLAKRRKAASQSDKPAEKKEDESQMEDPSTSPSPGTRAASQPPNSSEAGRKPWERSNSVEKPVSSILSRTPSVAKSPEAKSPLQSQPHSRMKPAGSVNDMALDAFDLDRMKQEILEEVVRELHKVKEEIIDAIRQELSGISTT
# Chain of UniProt P14060 (whole entry, looked up): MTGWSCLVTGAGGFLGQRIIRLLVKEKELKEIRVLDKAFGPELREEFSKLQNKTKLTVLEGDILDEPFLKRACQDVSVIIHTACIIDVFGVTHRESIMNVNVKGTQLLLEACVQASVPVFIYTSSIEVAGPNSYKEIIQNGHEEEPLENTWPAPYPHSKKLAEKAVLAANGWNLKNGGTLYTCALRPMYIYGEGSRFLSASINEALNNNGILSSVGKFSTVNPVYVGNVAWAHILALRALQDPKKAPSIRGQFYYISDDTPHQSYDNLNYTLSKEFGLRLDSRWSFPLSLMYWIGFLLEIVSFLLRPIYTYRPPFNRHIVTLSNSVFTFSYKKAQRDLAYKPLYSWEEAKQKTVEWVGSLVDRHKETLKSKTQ
# Chain of UniProt P11387 (whole entry, looked up): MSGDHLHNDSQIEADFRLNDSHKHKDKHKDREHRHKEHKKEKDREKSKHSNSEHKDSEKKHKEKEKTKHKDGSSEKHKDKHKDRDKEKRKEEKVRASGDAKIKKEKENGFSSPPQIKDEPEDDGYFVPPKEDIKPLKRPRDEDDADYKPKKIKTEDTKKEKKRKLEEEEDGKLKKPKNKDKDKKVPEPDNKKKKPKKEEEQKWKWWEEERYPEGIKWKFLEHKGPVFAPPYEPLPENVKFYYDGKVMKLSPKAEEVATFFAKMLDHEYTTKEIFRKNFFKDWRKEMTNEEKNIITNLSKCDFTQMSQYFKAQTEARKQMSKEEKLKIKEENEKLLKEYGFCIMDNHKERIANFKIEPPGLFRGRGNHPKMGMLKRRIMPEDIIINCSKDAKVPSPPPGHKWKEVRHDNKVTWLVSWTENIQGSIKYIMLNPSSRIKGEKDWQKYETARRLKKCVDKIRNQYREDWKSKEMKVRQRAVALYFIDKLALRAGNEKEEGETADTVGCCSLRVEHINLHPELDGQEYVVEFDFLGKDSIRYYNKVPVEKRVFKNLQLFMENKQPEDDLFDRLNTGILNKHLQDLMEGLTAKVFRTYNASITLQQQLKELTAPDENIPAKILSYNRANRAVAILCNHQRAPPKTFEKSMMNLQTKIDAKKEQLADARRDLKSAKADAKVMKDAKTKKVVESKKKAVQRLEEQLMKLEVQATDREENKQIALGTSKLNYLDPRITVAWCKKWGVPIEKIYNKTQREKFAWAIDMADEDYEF
Structure (SMILES),target,assay,system,conditions,how to read,endpoint,value
Cc1cc(C)cc(COc2cc3c(cc2OCc2cc(C)cc(C)c2)C2CC(O)(Cc4cn(CCOCCOCCNC(=O)CCCCC5SCC6NC(=O)NC65)nn4)CC(C)N2CC3)c1 (stereo not shown),"Exportin-2 (Homo sapiens, UniProt P55060)","biotinylated probe pull-down, item: CSE1L",,10 µM probe,reference: heavy over light,SILAC ratio,2.48
CC(=O)N[C@@H](Cc1ccc(O)cc1)C(=O)N[C@@H](CCCCN)C(=O)N[C@@H](C)C(=O)N[C@@H](CC(=O)O)C(=O)COC(=O)c1c(C)cccc1C,CASP8,"enzyme activity, inhibitor",,,,kinact/KI,32000 M⁻¹ s⁻¹
CC(C)[C@@H]1NC(=O)[C@H](Cc2ccccc2)NC(=O)CSC[C@@H](C(N)=O)NC(=O)[C@H](CCC(=O)O)NC(=O)[C@H](CO)NC(=O)[C@H](Cc2c[nH]c3cccc(Cl)c23)NC(=O)[C@H](C2CCCCC2)NC(=O)[C@H](C(C)C)NC(=O)[C@H](Cc2ccc(O)cc2)NC(=O)[C@H](CC(=O)O)NC(=O)[C@H](Cc2c[nH]c3ccccc23)NC(=O)[C@H](Cc2ccc(N)nc2)NC(=O)[C@H](Cc2c[nH]c3ccc(Cl)cc23)NC(=O)[C@H](CCC(=O)O)NC1=O,"Interleukin-1 receptor-like 2 (IL1RL2, Homo sapiens, UniProt Q9HB29)","reporter gene (SEAP), inhibitor, HEK-Blue IL-36R reporter",HEK-Blue IL-36R cells,"0.015 µM, 6 h, with: IL-36γ 1 ng/mL",,remaining activity,101%
C=C1C(=O)C2(C(=O)N3CCOCC3)CC(=O)CC1C2 (racemic),"Tyrosine-protein phosphatase non-receptor type 11 (PTPN11, Homo sapiens, UniProt Q06124)","enzyme activity, covalent inhibitor",,with: pNPP substrate,,kinact/KI,16 M⁻¹ s⁻¹
COc1cccc(Nc2cc(=O)oc3ccccc23)c1,"Alpha-1A adrenergic receptor (ADRA1A, Homo sapiens, UniProt P35348)","intracellular Ca2+ mobilization, agonist",COS-7,500 µM,reference: 3 µM ionomycin,agonist activity,21 ± 3.86%
CCN1CCN(Cc2ccc(C(=O)Nc3ccc(C)c(NCc4cnc5[nH]ccc5c4OC)c3)cc2C(F)(F)F)CC1,"Tyrosine-protein kinase ABL1, phosphorylated (ABL1, Homo sapiens, UniProt P00519, Q252H)","binding, competition with immobilised ligand",,1 µM,,remaining binding,1.6%
O=c1c(-c2ccc(F)cc2)coc2cc(O)ccc12,"3 beta-hydroxysteroid dehydrogenase/Delta 5-->4-isomerase type 1 (HSD3B1, Homo sapiens, UniProt P14060)",[3H]-DHEA conversion,LNCaP,"0.1 µM, normalized to protein, unit not given",reference: vehicle,DHEA metabolism,0.91
CCCCCC(O)/C=C/C=O (stereo not shown),ECI2,competitive isoTOP-ABPP,"proteome, soluble, MDA-MB-231","100 µM, 60 min, with: iodoacetamide probe","reference: DMSO over compound-treated, higher = stronger cysteine blockade",isoTOP-ABPP competition ratio,1.7
CSCC[C@@H]1NC(=O)[C@H](C(C)C)NC(=O)[C@H](CCCNC(=N)N)NC(=O)[C@@H]2CCCN2C(=O)CNC(=O)[C@@H](NC(=O)CNC(=O)[C@H](CO)NC(=O)CNC(=O)[C@H](CO)NC(=O)CCCC[C@@H]2SC[C@@H]3NC(=O)N[C@@H]32)CSSC[C@@H](C(N)=O)NC(=O)[C@@H]2CCCN2C(=O)CNC(=O)[C@H](CCC(=O)O)NC(=O)[C@H](CC(=O)O)NC(=O)[C@H](CC(=O)O)NC(=O)CNC(=O)[C@H](CC(C)C)NC(=O)[C@H](Cc2c[nH]cn2)NC(=O)[C@H](CC(C)C)NC(=O)CNC(=O)[C@H](Cc2c[nH]cn2)NC1=O,"Col1a1/Col1a2 (Rattus norvegicus, UniProt P02454+P02466)","binding, bio-layer interferometry",biotinylated peptide on streptavidin biosensor,with: collagen 0 to 8 µM,,kon,11400 M⁻¹ s⁻¹
ClC1C[N+]2=Cc3ccc4[n]3[Au-]23[n]2c(ccc2-c2nc5ccccc5nc2-4)C=[N+]3C1.F[P-](F)(F)(F)(F)F,"DNA topoisomerase 1 (TOP1, Homo sapiens, UniProt P11387)",,,,,Hill coefficient,2.2
O=C(Cc1ccc(OCc2ccccc2)cc1)NC1(C(=O)O)CCN(C(=O)c2ccc(-c3cccc(Cl)c3)cc2)CC1,"MAPK/MAK/MRK overlapping kinase (MOK, Homo sapiens, UniProt Q9UQ07)","enzyme activity, inhibitor",,10 µM,,activity vs control,119%
C#CCOC(=O)[C@@]1(C)C=C(C(=O)OC(C)(C)C)C(=O)CC1,"Mitogen-activated protein kinase 1 (MAPK1, Homo sapiens, UniProt P28482)","enzyme activity, D-SENSOR",,"1.646 µM, mean of replicates",,normalized kinase activity,1.04
CCCCCC=CC=C1C(=O)C=CC1CC=CCCCC(=O)O (stereo not shown),"F-box only protein 30 (FBXO30, Homo sapiens, UniProt Q8TB52)",competitive isoTOP-ABPP,Ramos soluble proteome,"100 µM, 60 min, with: iodoacetamide probe","reference: DMSO over compound-treated, higher = stronger cysteine blockade",isoTOP-ABPP competition ratio,9.6
C[Si](C)(C)C[C@@H](CN)CC(=O)O,"L-type calcium channel, rat","binding, radioligand binding",,"75 µM, with: [3H](-)-desmethoxyverapamil",,inhibition,16%
CN(C)CCCSC(=S)N1CCN(C(=O)/C=C/c2coc3ccccc3c2=O)CC1,"Nucleoprotein (N, Tomato spotted wilt virus, UniProt P25999)","binding, microscale thermophoresis",,0.061 µM,dose series,normalised MST response,0.021
O=C(N1CCCC1)n1cc(-c2ccc(-c3ccccc3)cc2)nn1,"Palmitoyl-protein thioesterase ABHD10, mitochondrial (Mus musculus, UniProt Q6PE15)","probe labelling, inhibitor, competitive ABPP-SILAC, item: Abhd10",mouse T cells,"concentration not given, 4 h, protein level","reference: treated over DMSO cells, lower = stronger inhibition",SILAC activity ratio,1.29
CCOC(=O)C1CC(C)C2C=CC3CCN(C(=O)C4CCC5C=CC6(CCCN6C(=O)C(Cc6ccccc6Cl)NC(C)=O)C(=O)N54)C3C(=O)N12 (stereo not shown),"Ena/VASP-like protein, EVH1 domain (EVL, Homo sapiens, UniProt Q9UI08)",fluorescence titration,,,,ligand efficiency,-730 J/(mol·heavy atom)
CC(=O)N[C@@H](CC(C)C)C(=O)N[C@@H](CCC(=O)O)C(=O)N[C@@H](Cc1c[nH]cn1)C(=O)N[C@@H](CC(=O)O)C(=O)COC(=O)c1c(C)cccc1C,CASP8,"enzyme activity, inhibitor",,,,kinact/KI,1.56e+06 M⁻¹ s⁻¹
O=C1c2sc(-c3ccc(N4CCC(CO)CC4)nc3F)nc2CCN1c1cccnc1,"TAR DNA-binding protein 43, aggregated (TARDBP, Homo sapiens, UniProt Q13148)",autoradiography,"human, sections, FTLD-TDP, type B",10 nM,higher = more binding,specific binding,1.89 a.u. and 4.15 a.u. and 2.56 a.u. and 3.07 a.u. and 3.24 a.u. and 4.78 a.u.
CC(=O)N[C@@H](CC(C)C)C(=O)N[C@@H](CCC(N)=O)C(=O)N[C@@H](CO)C(=O)N[C@@H](CC(=O)O)C(=O)COC(=O)c1c(C)cccc1C,CASP8,"enzyme activity, inhibitor",,,,kinact/KI,1.11e+06 M⁻¹ s⁻¹
Cc1ccc(-n2nc(NC(=O)COc3ccc(Cl)cc3Cl)c3cccnc32)cc1Cl,"Kir3.1/Kir3.4 (Homo sapiens, UniProt P48544+P48549)","activator, thallium flux",HEK293,concentration not given,,activity,inactive
CC[C@H](C)[C@H](NC(=O)[C@@H](NC(=O)[C@@H](NC(=O)[C@@H](NC(=O)[C@@H](N)CCCCN)C(C)C)C(C)C)C(C)C)C(=O)N[C@H](C(N)=O)[C@@H](C)O,"Microtubule-associated protein tau (MAPT, Homo sapiens, UniProt P10636)","fibril formation, ThT fluorescence",,"5-fold of tau, at plateau, with: wild-type tau 10 µM, heparin",reference: untreated,ThT fluorescence,33 ± 10%
CC(=O)N[C@H](C(=O)N[C@@H](CCC(=O)O)C(=O)N[C@@H](CCCCN(C)C)C(=O)N[C@@H](CC(=O)O)C(=O)COC(=O)c1c(C)cccc1C)C(C)C,CASP8,"enzyme activity, inhibitor",,,,kinact/KI,530000 M⁻¹ s⁻¹
CC(C=CC=C(C)C=CC1=C(C)CCCC1(C)C)=CC=O,"Rhodopsin (RHO, Homo sapiens, UniProt P08100, P23H)","ER retention, immunostaining co-localization, item: opsin with calnexin",COS-7 transfected P23H,30.00 µM,,Pearson correlation coefficient,0.57
CCCC[C@H](NC(C)=O)C(=O)N[C@@H](CCC(=O)O)C(=O)N[C@H](C(=O)N[C@@H](CC(=O)O)C(=O)COC(=O)c1c(C)cccc1C)[C@@H](C)O,CASP8,"enzyme activity, inhibitor",,,,kinact/KI,664000 M⁻¹ s⁻¹
CCCCCCCCCCCCC/C=C/C=O,ECI2,"competitive isoTOP-ABPP, item: PECI cysteine peptide","proteome, soluble, MDA-MB-231","100 µM, with: iodoacetamide probe","reference: DMSO over compound-treated, higher = stronger cysteine blockade",isoTOP-ABPP competition ratio,1.1
CO[C@@H]1[C@H](O)[C@@H](COP(=O)(O)OP(=O)([O-])C(Cl)(Cl)P(=O)(O)OP(=O)(O)OC[C@H]2O[C@@H](n3cnc4c(=O)[nH]c(N)nc43)[C@H](O)[C@@H]2O)O[C@H]1n1c[n+](C)c2c(O)nc(N)nc21,"m7GpppX diphosphatase (DCPS, Homo sapiens, UniProt Q96C86)","substrate, HPLC",,"concentration not given, 30 min",,hydrolysis,0%
CC[C@H](NC(=O)[C@H](CC(C)C)NC(=O)[C@H](CC(=O)O)NC(C)=O)C(=O)N[C@@H](CC(=O)O)C(=O)COC(=O)c1c(C)cccc1C,CASP8,"enzyme activity, inhibitor",,,,kinact/KI,1.15e+06 M⁻¹ s⁻¹
